Assay results of several laboratories.
Compare with care: the assays were run in different laboratories. Several values in a cell are separate wells, animals, samples, runs or records. ± gives the spread as reported.

| SMILES | test | system | conditions | scale | endpoint | value |
| --- | --- | --- | --- | --- | --- | --- |
| Cc1c(Br)cc(NC(=O)CS(=O)(=O)O)cc1Br |  | Sprague-Dawley rats, plasma | oral, 30 mg/kg |  | unbound Cmax | < 0.085 µM |
| NC1(C(=O)N[C@@H](CCO)c2ccc(Cl)cc2)CCN(c2nc[nH]c3nccc2-3)CC1 |  | metastatic CRPC patients | dose not given, grade 3 to 4, treatment-related, all doses, together with: enzalutamide 160 mg daily |  | incidence of Diarrhoea | 6.7% |
| O=C(O)CSc1nnc(Br)n1-c1ccc(C2CC2)c2ccccc12 |  | KM mouse, chronic hyperuricaemia model, serum | dose not given |  | ALT | 66.6 U/L and 64 U/L and 97.4 U/L and 61.8 U/L and 60.8 U/L and 37.4 U/L |
| Cc1cc(-c2nnc(N)nc2-c2ccc(F)cc2)cc(Cl)n1 |  | human, post-IO other solid tumours | oral, 100 mg once daily, phase Ia/Ib, any grade |  | patients with treatment-related AE | 71.4% |
| C[Si](C)(C)O[Si](C)(C)O[Si](C)(C)C |  |  |  |  | slope B, log KOA vs 1/T | 1950 |
| CNC(=O)c1ccc(-c2cnc3ncc(Cc4ccc5ncccc5c4)n3n2)cc1F |  | human severe hepatic impairment | oral, 200 mg single dose, covariate-adjusted geometric mean |  | AUC(0-t) | 9110 ng·h/mL |
| COc1nnc2ccc(N3CCC(c4ccc(OCCN5CCN(C)C(=O)[C@H]5C)cc4)CC3)nn12 |  | patients, plasma | oral, 20 mg twice daily, multiple dose, monotherapy |  | terminal half-life | 2.33 h |
| Cc1cccc(CNC(=O)c2cn(CCNC(=O)c3ccccc3Sc3c([N+](=O)[O-])ncn3C)c3cc4c(cc3c2=O)OC(F)(F)O4)n1 |  | Sprague-Dawley rat, male, plasma | intravenous, 5 mg/kg of parent compound |  | half-life | 1.81 ± 0.12 h |
| Cc1cc(-c2nccc3c2ccn3CC(=O)Nc2ccc(-c3cnccn3)cn2)ccn1 |  | human | MAD part, 15 mg once daily |  | subjects with eye disorders TEAEs | 11.1% |
| COc1cc(Nc2ncc3c(n2)-c2ccc(Cl)cc2C(c2c(F)cccc2OC)=NC3)ccc1C(=O)O | measured: increased LDH, all grades | cancer patients, phase 1/2 | oral, dose not given, together with: pembrolizumab |  | patients with adverse event | 25% |
| CCO |  | human | concentration not given, treatment-emergent adverse event |  | blood pressure increased | 27.8% |
| FC(F)(F)c1ccc(CNc2ccc(Cc3c[nH]c4ncc(Cl)cc34)cn2)cn1 | measured: Fatigue | patients with advanced solid tumours | oral, dose not given, grade 1 and 2, possibly related to drug |  | adverse event incidence | 44% |
| N#Cc1cccc(-c2ccc3ncc(-c4cc(F)cc(F)c4)c(N4CCC(N)CC4)c3c2)c1O |  | healthy male, faeces | oral, 20 mg, 120 h, 14C-labelled | relative to: dose | radioactivity recovered | 39.7% |
| Cc1nc(-c2ccc(OCC(C)C)c(C#N)c2)sc1C(=O)O |  | human, plasma | oral, 40 mg, together with: verinurad 5 mg | relative to: test over reference | geometric mean ratio AUC(0-24) | 93.2 |
| O=C(N[C@H](Cc1c[nH]c2ccccc12)C(=O)Nc1ccncc1)c1ccc(N2CCN(c3ccc(F)cc3F)CC2)cc1F |  | Swiss Webster mouse, female, intestine | oral, 50 mg/kg, 8 h, 20% HPβCD vehicle |  | concentration | 89.2 µM |
| CCCC[C@@H]1NC(=O)[C@H](Cc2ccc(O)cc2)NC(=O)[C@@H]2CCCN2C(=O)[C@H](CC(=O)O)NC(=O)[C@H](C)NC(=O)[C@H](Cc2ccccc2)NC(=O)[C@@H]2CSCCC(=O)N3CN(CN(C3)C(=O)CCSC[C@@H](C(=O)N[C@@H](C)C(N)=O)NC1=O)C(=O)CCSC[C@H](NC(C)=O)C(=O)N[C@@H](CC(C)(C)C)C(=O)N1CCC[C@H]1C(=O)N[C@@H](CCC(=O)O)C(=O)N[C@H](CCCCNC(=O)CCc1cn(CCOCCOCCOCCOCCOCCC(=O)N[C@H]3CSCCC(=O)N4CN5CN(C4)C(=O)CCSC[C@H](NC(=O)[C@@H](CC(=O)O)NC(=O)[C@H](Cc4cccc6ccccc46)NC(=O)[C@@H]4CCCN4C3=O)C(=O)N[C@@H](CCSC)C(=O)N[C@@H](CCCCNC(=N)N)C(=O)N[C@@H](CC(=O)O)C(=O)N[C@@H](Cc3c[nH]c4ccccc34)C(=O)N[C@@H](CO)C(=O)N[C@@H]([C@@H](C)O)C(=O)N3CCC[C@H]3C(=O)N3C[C@H](O)C[C@H]3C(=O)N[C@@H](Cc3c[nH]c4ccccc34)C(=O)N[C@H](C(N)=O)CSCCC5=O)nn1)C(=O)N1CCC[C@H]1C(=O)N[C@@H](Cc1ccc(O)cc1)C(=O)N2 |  | Sprague-Dawley rat |  |  | unbound clearance | 50 mL/min/kg |
| CC(C)=CC[C@@H](O)C1=CC(=O)c2c(O)ccc(O)c2C1=O |  | plasma | 500 ng/mL, 4 h, room temperature, stability |  | measured concentration | 486 ± 10.6 ng/mL |
| Cc1ccc(Sc2ccccc2N2CCNCC2)c(C)c1 | measured: Pollakiuria | healthy adult men | oral, 10 mg daily, 12 days |  | participants with TEAE | 0% |
| C[C@@H](N)C1CCN(S(=O)(=O)c2cccc3cnccc23)CC1 |  | healthy volunteers | 150 mg, fasted |  | participants with limb abscess | 0% |
| NC(CO)(CO)CCc1ccc(Sc2cccc(OCc3ccccc3)c2)cc1Cl |  | human, supine | oral, 3 mg, 0 to 312 h, alone |  | pulse rate AUEC, geometric mean | 19200 h×bpm |
| CC(=O)Nc1ccc(C[C@H](NC(=O)[C@H](CO)NC(=O)[C@@H](Cc2cccnc2)NC(=O)[C@@H](Cc2ccc(Cl)cc2)NC(=O)[C@@H](Cc2ccc3ccccc3c2)NC(C)=O)C(=O)N[C@H](Cc2ccc(NC(C)=O)cc2)C(=O)N[C@@H](CC(C)C)C(=O)N[C@@H](CCCCNC(C)C)C(=O)N2CCC[C@H]2C(=O)N[C@H](C)C(N)=O)cc1 |  | healthy men, fasted, serum | oral, 10 mg single dose |  | terminal half-life | 7.4 ± 3.1 h |
| C[C@@H](Oc1ccc(S(C)(=O)=O)cc1C(=O)N1C[C@@H]2C[C@]2(c2cc(C(F)(F)F)on2)C1)C(F)(F)F | LC-MS/MS | elderly human subjects, plasma | oral, 50 mg once daily, steady state, multiple doses |  | Vz/F | 415 L |

| SMILES | test | system | conditions | scale | endpoint | value |
| --- | --- | --- | --- | --- | --- | --- |
| COc1cc2nccc(Oc3ccc(NC(=O)c4cc5c(n(-c6ccccc6)c4=O)CCCC5=O)nc3)c2cc1OC |  | relapsed or refractory AML | oral, 10 mg once daily |  | grade ≥3 Hyperkalaemia patients | 0% |
| O=C(Nc1nc2cccc(-c3ccc(CN4CCS(=O)(=O)CC4)cc3)n2n1)C1CC1 | measured: non-cardiac chest pain | human rheumatoid arthritis patients | oral, 75 mg once daily, 4 weeks, regardless of relatedness |  | treatment-emergent adverse events | 4.5% |
| CCc1cc(C(=O)NC)c2nccc(N3CCc4c(cc(Cn5ccnc5)cc4-c4cn(C)nc4C(F)(F)F)C3=O)c2c1 |  | Sprague Dawley rats | oral, 100 mg/kg once daily, 7 days | relative to: vehicle | serum ALT change | -5.6% |
| C=CC(=O)N1CCC([C@@H]2CCNc3c(C(N)=O)c(-c4ccc(Oc5ccccc5)cc4)nn32)CC1 |  | rat plasma | 800 ng/mL, 21 days, -80 °C | relative to: nominal concentration | stability relative error | 2.3% |
| FC(F)(F)c1ccc(CNc2ccc(Cc3c[nH]c4ncc(Cl)cc34)cn2)cn1 |  | healthy volunteers, plasma | oral, 600 mg, together with: rifampin | relative to: with rifampin over alone | AUC(0-inf) ratio | 0.37 |
| O=C(c1cccnc1-c1ccncc1)N1CCC(O)(Cc2ccccc2)CC1 |  | healthy Japanese adults, plasma | oral, 300 mg twice daily, day 21 |  | AUCtau/dose | 6.73 ng·h/mL/mg |
| Cc1nc2cccc(OCC(C)(C)C(=O)NC(C)C)c2c(N)c1C(=O)O |  | Sprague-Dawley rat, plasma | intravenous, 1 mg/kg, day 1 | relative to: female over male | Cmax ratio | 1.29 ± 0.38 |
| C[C@H](CCC(=O)O[C@@H]1O[C@H](C(=O)O)[C@@H](O)[C@H](O)[C@H]1O)[C@H]1CC[C@H]2[C@@H]3[C@H](O)C[C@@H]4C[C@H](O)CC[C@]4(C)[C@H]3CC[C@]12C |  | human, plasma | endogenous control diurnal | relative to: daily mean concentration | relative peak deviation | 54 ± 7.9% |
| N#Cc1ccc2c(c1)[C@H]1CCCN(C(=O)c3ccc4[nH]cnc4c3)[C@H]1C2 |  | human | 80 mg, day 15 | relative to: baseline | ACTH level change | 2.2 pmol/L |
| O=C(O)CCCCCCCCC(=O)O |  | human, plasma | endogenous control diurnal | relative to: daily mean concentration | relative peak deviation | 62.1 ± 8.6% |
| CCCCC1=NC2(CCCC2)C(=O)N1Cc1ccc(-c2ccccc2S(=O)(=O)Nc2noc(C)c2C)c(COCC)c1 |  | healthy adult volunteers, plasma | oral, 400 mg, single dose, fasted, crushed tablet |  | Tmax | 3.5 h |
| Cc1ccc([C@@H]2O[C@H](CO)[C@@H](O)[C@H](O)[C@H]2O)cc1Cc1ccc(-c2ccc(F)cc2)s1 |  | Japanese type 2 diabetes patients | 25 mg, day 1, 24 h urine collection | relative to: baseline | urinary magnesium excretion change | -9.78 mg |
| CNCCOC12CC3(C)CC(C)(CC(Cn4ncc(-c5ccc(N6CCc7cccc(C(=O)Nc8nc9ccccc9s8)c7C6)nc5C(=O)O)c4C)(C3)C1)C2 |  | beagle dog, male, anaesthetised | intravenous bolus, 0.03 mg/kg, 10 min | relative to: baseline | mean arterial pressure change | -5% |
| NC1(C(=O)N[C@@H](CCO)c2ccc(Cl)cc2)CCN(c2ncnc3[nH]ccc23)CC1 |  | human patients, plasma | 80 mg twice daily, day 8, continuous dosing |  | geometric mean Cmax | 172 ng/mL |
| Cn1cnc2c(F)c(Nc3ccc(Br)cc3Cl)c(C(=O)NOCCO)cc21 | population PK model | human, plasma | oral, nonlinear absorption model | relative to: fed over fasted | relative bioavailability | 0.77 |
| Nc1nc(O)c2ncn(COC(CO)CO)c2n1 |  | Sprague-Dawley rat, male | oral, 10 mg/kg |  | mean residence time | 2.28 ± 0.783 h |
| O=C(Cc1ccc2ccccc2c1)Nc1cc(C2CCC2)[nH]n1 |  | mouse plasma | 375 ng/mL, 40 days, -80 °C, long-term storage stability |  | measured mean concentration | 374 ± 10 ng/mL |
| CCn1cc(C(=O)N2CCOCC2)c(=O)c2cc(NC3Cc4ccccc4C3)cnc21 |  | human, fasted, plasma | oral, 1200 mg single dose, tablet, arithmetic mean |  | Cmax | 6430 ng/mL |
| COc1ncc(-c2nc3c(n2C(C)C)[C@H](c2ccc(Cl)cc2)N(c2cc(Cl)cn(C)c2=O)C3=O)c(OC)n1 |  | human patients, plasma | oral, 25 mg, cycle 1 day 1, low-dose |  | median Tmax | 2 h |
| COc1ccc2[nH]c([S+]([O-])Cc3ncc(C)c(OC)c3C)nc2c1 (stereo not shown) |  | healthy Chinese volunteers, plasma | oral, 20 mg, fed, CYP2C19 poor metabolizers |  | Cmax | 859 ± 735 ng/mL |
| CC(C)(C(=O)N1CCOc2c(C#N)cncc2C1)C(F)F |  | human, both sexes | oral, 20 mg single dose |  | subjects with cardiac disorder TEAE | 16.7% |

Some of these lines once more:
| SMILES | test | system | conditions | scale | endpoint | value |
| --- | --- | --- | --- | --- | --- | --- |
| N#Cc1cccc(-c2ccc3ncc(-c4cc(F)cc(F)c4)c(N4CCC(N)CC4)c3c2)c1O |  | healthy male, faeces | oral, 20 mg, 120 h, 14C-labelled | relative to: dose | radioactivity recovered | 39.7% |
| Cc1nc(-c2ccc(OCC(C)C)c(C#N)c2)sc1C(=O)O |  | human, plasma | oral, 40 mg, together with: verinurad 5 mg | relative to: test over reference | geometric mean ratio AUC(0-24) | 93.2 |
| O=C(N[C@H](Cc1c[nH]c2ccccc12)C(=O)Nc1ccncc1)c1ccc(N2CCN(c3ccc(F)cc3F)CC2)cc1F |  | Swiss Webster mouse, female, intestine | oral, 50 mg/kg, 8 h, 20% HPβCD vehicle |  | concentration | 89.2 µM |
| CCCC[C@@H]1NC(=O)[C@H](Cc2ccc(O)cc2)NC(=O)[C@@H]2CCCN2C(=O)[C@H](CC(=O)O)NC(=O)[C@H](C)NC(=O)[C@H](Cc2ccccc2)NC(=O)[C@@H]2CSCCC(=O)N3CN(CN(C3)C(=O)CCSC[C@@H](C(=O)N[C@@H](C)C(N)=O)NC1=O)C(=O)CCSC[C@H](NC(C)=O)C(=O)N[C@@H](CC(C)(C)C)C(=O)N1CCC[C@H]1C(=O)N[C@@H](CCC(=O)O)C(=O)N[C@H](CCCCNC(=O)CCc1cn(CCOCCOCCOCCOCCOCCC(=O)N[C@H]3CSCCC(=O)N4CN5CN(C4)C(=O)CCSC[C@H](NC(=O)[C@@H](CC(=O)O)NC(=O)[C@H](Cc4cccc6ccccc46)NC(=O)[C@@H]4CCCN4C3=O)C(=O)N[C@@H](CCSC)C(=O)N[C@@H](CCCCNC(=N)N)C(=O)N[C@@H](CC(=O)O)C(=O)N[C@@H](Cc3c[nH]c4ccccc34)C(=O)N[C@@H](CO)C(=O)N[C@@H]([C@@H](C)O)C(=O)N3CCC[C@H]3C(=O)N3C[C@H](O)C[C@H]3C(=O)N[C@@H](Cc3c[nH]c4ccccc34)C(=O)N[C@H](C(N)=O)CSCCC5=O)nn1)C(=O)N1CCC[C@H]1C(=O)N[C@@H](Cc1ccc(O)cc1)C(=O)N2 |  | Sprague-Dawley rat |  |  | unbound clearance | 50 mL/min/kg |
| CC(C)=CC[C@@H](O)C1=CC(=O)c2c(O)ccc(O)c2C1=O |  | plasma | 500 ng/mL, 4 h, room temperature, stability |  | measured concentration | 486 ± 10.6 ng/mL |
| Cc1ccc(Sc2ccccc2N2CCNCC2)c(C)c1 | measured: Pollakiuria | healthy adult men | oral, 10 mg daily, 12 days |  | participants with TEAE | 0% |
| C[C@@H](N)C1CCN(S(=O)(=O)c2cccc3cnccc23)CC1 |  | healthy volunteers | 150 mg, fasted |  | participants with limb abscess | 0% |
